Measured values from different studies.
Protocols differ between the studies behind these lines. Several values in a cell are separate wells, animals, samples, runs or records. Numbers after ± are the reported error.
MAPT: Microtubule-associated protein tau (MAPT, Homo sapiens, UniProt P10636)
CASP10: Caspase-10 (CASP10, Homo sapiens, UniProt Q92851)
UniProt Q92851, sequence (whole entry, looked up): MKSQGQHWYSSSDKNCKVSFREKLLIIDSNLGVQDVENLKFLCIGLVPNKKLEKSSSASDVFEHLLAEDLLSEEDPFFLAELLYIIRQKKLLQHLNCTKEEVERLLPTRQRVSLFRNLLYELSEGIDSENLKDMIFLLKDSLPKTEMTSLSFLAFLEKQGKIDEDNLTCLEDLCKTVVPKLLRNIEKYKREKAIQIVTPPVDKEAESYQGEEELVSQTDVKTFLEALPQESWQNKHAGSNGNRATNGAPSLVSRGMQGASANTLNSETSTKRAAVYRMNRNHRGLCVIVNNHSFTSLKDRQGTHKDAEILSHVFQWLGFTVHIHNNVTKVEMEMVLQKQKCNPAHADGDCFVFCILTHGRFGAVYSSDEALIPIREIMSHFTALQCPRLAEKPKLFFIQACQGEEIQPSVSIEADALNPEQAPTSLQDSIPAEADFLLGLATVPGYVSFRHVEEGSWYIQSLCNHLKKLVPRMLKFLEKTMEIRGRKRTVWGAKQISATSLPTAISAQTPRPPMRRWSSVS
CASP8: Caspase-8 (CASP8, Homo sapiens, UniProt Q14790)
UniProt Q14790, sequence (whole entry, looked up): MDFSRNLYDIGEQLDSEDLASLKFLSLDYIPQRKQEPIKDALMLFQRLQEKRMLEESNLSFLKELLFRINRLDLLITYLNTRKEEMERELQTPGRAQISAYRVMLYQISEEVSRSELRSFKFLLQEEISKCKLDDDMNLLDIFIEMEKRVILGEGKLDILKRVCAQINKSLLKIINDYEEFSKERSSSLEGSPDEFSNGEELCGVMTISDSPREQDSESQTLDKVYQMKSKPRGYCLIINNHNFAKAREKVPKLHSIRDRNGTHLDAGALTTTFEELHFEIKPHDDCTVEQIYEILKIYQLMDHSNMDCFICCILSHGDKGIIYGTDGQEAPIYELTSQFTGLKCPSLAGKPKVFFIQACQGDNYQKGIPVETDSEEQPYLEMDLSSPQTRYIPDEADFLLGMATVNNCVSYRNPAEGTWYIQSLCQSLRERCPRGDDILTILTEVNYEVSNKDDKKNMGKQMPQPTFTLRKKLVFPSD
DCPS: m7GpppX diphosphatase (DCPS, Homo sapiens, UniProt Q96C86)
UniProt P45983, sequence (whole entry, looked up): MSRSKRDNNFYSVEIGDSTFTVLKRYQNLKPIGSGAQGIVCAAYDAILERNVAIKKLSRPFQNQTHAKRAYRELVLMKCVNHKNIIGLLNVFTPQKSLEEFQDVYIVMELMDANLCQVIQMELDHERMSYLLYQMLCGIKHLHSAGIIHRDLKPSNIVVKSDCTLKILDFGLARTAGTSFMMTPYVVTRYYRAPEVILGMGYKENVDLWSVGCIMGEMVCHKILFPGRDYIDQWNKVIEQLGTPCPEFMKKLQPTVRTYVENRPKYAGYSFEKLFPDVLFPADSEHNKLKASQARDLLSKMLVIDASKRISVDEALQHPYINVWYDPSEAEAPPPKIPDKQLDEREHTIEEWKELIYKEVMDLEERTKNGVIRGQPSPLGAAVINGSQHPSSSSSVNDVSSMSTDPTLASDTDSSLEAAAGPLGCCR
UniProt Q7Z7A4, sequence (whole entry, looked up): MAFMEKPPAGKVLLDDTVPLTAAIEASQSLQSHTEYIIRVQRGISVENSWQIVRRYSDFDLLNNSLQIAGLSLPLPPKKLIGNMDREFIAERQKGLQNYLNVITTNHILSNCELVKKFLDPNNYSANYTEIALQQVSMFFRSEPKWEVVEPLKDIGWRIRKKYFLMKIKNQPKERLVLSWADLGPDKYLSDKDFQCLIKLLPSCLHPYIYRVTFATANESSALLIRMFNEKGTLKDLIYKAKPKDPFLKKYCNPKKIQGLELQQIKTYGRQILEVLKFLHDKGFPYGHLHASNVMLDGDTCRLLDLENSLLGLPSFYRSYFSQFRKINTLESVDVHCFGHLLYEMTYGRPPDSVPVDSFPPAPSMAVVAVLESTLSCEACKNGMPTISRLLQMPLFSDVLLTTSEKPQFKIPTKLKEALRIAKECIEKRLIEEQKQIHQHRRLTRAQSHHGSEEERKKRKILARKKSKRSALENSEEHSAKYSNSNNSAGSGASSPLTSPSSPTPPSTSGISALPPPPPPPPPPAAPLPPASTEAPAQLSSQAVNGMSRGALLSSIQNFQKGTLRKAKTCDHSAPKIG
UniProt P46089, sequence (whole entry, looked up): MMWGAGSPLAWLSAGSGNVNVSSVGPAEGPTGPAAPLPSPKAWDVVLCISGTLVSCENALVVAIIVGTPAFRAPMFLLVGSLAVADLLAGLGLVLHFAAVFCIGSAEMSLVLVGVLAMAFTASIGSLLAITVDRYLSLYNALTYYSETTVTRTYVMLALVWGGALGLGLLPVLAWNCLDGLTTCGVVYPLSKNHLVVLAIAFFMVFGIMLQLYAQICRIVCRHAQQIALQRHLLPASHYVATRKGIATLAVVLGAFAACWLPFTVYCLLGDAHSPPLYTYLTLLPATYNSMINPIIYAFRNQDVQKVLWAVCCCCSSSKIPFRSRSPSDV
UniProt Q96C86, sequence (whole entry, looked up): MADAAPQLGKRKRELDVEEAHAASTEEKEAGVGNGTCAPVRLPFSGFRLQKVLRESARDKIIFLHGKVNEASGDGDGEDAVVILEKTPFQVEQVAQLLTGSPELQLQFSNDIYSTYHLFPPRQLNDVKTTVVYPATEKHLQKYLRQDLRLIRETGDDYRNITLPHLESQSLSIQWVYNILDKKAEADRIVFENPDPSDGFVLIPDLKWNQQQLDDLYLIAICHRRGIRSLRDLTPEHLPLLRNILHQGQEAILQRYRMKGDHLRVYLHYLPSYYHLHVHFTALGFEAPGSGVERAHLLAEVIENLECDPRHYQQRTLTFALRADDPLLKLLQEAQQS
UniProt P00519, sequence (whole entry, looked up): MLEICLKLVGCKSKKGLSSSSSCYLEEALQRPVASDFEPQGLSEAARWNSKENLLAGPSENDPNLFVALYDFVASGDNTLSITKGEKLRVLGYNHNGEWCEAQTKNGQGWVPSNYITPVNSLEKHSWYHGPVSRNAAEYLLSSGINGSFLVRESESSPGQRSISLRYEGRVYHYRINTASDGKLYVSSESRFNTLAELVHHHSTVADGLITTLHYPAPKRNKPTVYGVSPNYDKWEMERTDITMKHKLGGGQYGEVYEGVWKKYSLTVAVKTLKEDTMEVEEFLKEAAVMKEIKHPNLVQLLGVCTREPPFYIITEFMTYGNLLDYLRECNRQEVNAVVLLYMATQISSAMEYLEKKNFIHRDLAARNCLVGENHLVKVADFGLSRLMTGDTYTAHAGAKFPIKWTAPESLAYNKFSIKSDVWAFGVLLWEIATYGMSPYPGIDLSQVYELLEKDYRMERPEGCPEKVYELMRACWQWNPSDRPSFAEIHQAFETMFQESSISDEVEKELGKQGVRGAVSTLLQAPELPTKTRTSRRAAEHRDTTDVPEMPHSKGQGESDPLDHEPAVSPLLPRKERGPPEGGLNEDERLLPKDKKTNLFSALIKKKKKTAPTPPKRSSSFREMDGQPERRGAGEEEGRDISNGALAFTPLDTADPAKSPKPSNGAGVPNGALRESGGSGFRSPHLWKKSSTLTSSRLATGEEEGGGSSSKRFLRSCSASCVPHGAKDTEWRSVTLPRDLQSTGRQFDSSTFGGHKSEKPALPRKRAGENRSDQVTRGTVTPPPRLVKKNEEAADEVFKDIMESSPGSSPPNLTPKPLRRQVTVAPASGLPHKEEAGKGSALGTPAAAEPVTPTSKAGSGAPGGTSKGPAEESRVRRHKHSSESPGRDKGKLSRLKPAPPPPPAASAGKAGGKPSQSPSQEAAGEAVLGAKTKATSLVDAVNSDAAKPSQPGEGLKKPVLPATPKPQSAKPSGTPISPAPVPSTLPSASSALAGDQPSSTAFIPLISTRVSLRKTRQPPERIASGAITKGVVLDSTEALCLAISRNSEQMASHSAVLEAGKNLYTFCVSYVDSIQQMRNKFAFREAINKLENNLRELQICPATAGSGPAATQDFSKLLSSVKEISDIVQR
UniProt Q9HB29, sequence (whole entry, looked up): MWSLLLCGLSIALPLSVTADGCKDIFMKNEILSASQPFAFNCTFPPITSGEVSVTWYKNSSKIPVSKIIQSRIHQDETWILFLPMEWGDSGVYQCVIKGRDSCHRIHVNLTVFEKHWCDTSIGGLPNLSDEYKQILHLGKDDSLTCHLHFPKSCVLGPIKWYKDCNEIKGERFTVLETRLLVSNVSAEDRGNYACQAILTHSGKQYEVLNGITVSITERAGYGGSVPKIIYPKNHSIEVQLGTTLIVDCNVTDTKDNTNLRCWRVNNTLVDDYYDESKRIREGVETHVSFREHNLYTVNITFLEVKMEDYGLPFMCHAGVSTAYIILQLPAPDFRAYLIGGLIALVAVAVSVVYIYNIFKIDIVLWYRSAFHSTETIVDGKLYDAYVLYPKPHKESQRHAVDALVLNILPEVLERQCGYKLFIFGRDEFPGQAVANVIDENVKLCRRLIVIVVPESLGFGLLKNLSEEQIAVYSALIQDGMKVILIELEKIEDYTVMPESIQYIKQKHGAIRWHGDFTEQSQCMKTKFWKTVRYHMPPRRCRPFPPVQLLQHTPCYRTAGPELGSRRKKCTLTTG
UniProt P08191, sequence (whole entry, unmodified, looked up): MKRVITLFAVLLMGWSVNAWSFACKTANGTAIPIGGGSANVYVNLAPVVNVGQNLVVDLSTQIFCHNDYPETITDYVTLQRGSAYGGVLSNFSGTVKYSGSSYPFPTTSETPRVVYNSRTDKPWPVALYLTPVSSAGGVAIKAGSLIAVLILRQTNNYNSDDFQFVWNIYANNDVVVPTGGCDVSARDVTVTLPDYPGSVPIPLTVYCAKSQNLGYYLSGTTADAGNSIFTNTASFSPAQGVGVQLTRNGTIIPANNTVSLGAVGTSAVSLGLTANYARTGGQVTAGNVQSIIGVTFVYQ
UniProt Q8IUR0, sequence (whole entry, looked up): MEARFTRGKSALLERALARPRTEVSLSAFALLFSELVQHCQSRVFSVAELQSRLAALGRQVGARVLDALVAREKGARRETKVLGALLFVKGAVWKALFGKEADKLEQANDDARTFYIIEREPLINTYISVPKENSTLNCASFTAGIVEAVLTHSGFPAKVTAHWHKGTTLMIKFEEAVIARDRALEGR

| Compound | target | test | system | setting | scale | endpoint | value |
| --- | --- | --- | --- | --- | --- | --- | --- |
| O=C(CCCCCCS)Nc1ccccc1 | Histone deacetylase 8 (HDAC8, Homo sapiens, UniProt Q9BY41) | ITC | Tris-HCl buffer | 283 K |  | TΔS° | 7.1 kcal/mol |
| COc1ncc2nc(C)n(Cc3ncc(S(N)(=O)=O)cc3F)c2c1-c1ccccc1 | GABA-A receptor; alpha-1/beta-2/gamma-2 (Homo sapiens, UniProt P14867+P18507+P47870) | agonist, cell-based |  | 10 µM |  | activation | 0.28% |
| CC(C)[C@@H]1NC(=O)[C@H](Cc2ccccc2)NC(=O)CSC[C@@H](C(N)=O)NC(=O)[C@H](CCC(=O)O)NC(=O)[C@H](CO)NC(=O)[C@H](Cc2c[nH]c3cccc(Cl)c23)NC(=O)[C@H](C2CCCCC2)NC(=O)[C@H](C(C)C)NC(=O)[C@H](Cc2ccc(O)cc2)NC(=O)[C@H](CC(=O)O)NC(=O)[C@H](Cc2c[nH]c3ccccc23)NC(=O)[C@H](Cc2ccc(N)nc2)NC(=O)[C@H](Cc2c[nH]c3ccc(Cl)cc23)NC(=O)[C@H](CCC(=O)O)NC1=O | Interleukin-1 receptor-like 2 (IL1RL2, Homo sapiens, UniProt Q9HB29) | reporter gene (SEAP), inhibitor, HEK-Blue IL-36R reporter | HEK-Blue IL-36R cells | 0.41 µM, 6 h, added: IL-36γ 3 ng/mL |  | remaining activity | 92.5% |
| CC[C@H](C)[C@H](NC(=O)[C@@H](NC(=O)[C@@H](NC(=O)[C@@H](NC(=O)[C@H](CCCCN)NC(=O)[C@H](CCC(=O)O)NC(=O)[C@H](C)N)C(C)C)C(C)C)C(C)C)C(=O)N[C@H](C(=O)N[C@@H](CCCCN)C(N)=O)[C@@H](C)O | MAPT | fibril formation, ThT fluorescence |  | 0.1-fold of tau, 37 °C, added: wild-type tau 10 µM, heparin | relative to: untreated | aggregation half-time | 48 ± 18% |
| CC(=O)N1CCC[C@H]1C(=O)N[C@@H](CCC(N)=O)C(=O)N[C@@H](C)C(=O)N[C@@H](CC(=O)O)C(=O)COC(=O)c1c(C)cccc1C | CASP10 | enzyme activity, inhibitor |  |  |  | kinact/KI | 143000 M⁻¹ s⁻¹ |
| CCCCCCCO[C@H]1CO[C@H](CO)[C@@H](O)[C@H](O)[C@@H]1O | Type 1 fimbrin D-mannose specific adhesin, lectin domain (fimH, Escherichia coli K-12, UniProt P08191) | binding, isothermal titration calorimetry |  | 37 °C, global fit of two titrations |  | -TΔS | 5.54 kcal/mol |
| CNC(=O)C1CCN(c2cc(C)c(F)cc2NC(=O)c2ccc(-c3cc(O)ccc3C)c(C)c2)CC1 | Tyrosine-protein kinase ABL1, non-phosphorylated (ABL1, Homo sapiens, UniProt P00519) | binding, competition with immobilised ligand |  | 1 µM |  | remaining binding | 36% |
| C=C1C(=O)C2(C(=O)N3CCN(c4ccccc4)CC3)CC(=O)CC1C2 (racemic) | Tyrosine-protein phosphatase non-receptor type 11 (PTPN11, Homo sapiens, UniProt Q06124) | phosphatase activity, irreversible inhibitor |  | added: pNPP |  | kinact/KI | 39.6 M⁻¹ s⁻¹ |
| CC(=O)N[C@H](C(=O)N[C@@H](CCC(=O)O)C(=O)N[C@@H](C)C(=O)N[C@@H](CC(=O)O)C(=O)COC(=O)c1c(C)cccc1C)C(C)C | CASP8 | enzyme activity, inhibitor |  |  |  | kinact/KI | 2.22e+06 M⁻¹ s⁻¹ |
| Cc1ncsc1-c1ccc(CNC(=O)[C@@H]2C[C@@H](O)CN2C(=O)[C@@H](NC(=O)COCC(C)(COCCOCCOCCNC(=O)C[C@@H]2N=C(c3ccc(Cl)cc3)c3c(sc(C)c3C)-n3c(C)nnc32)COCCOCCOCCNC(=O)C[C@@H]2N=C(c3ccc(Cl)cc3)c3c(sc(C)c3C)-n3c(C)nnc32)C(C)(C)C)cc1 | BRD4/VHL, BD1 (Homo sapiens, UniProt O60885+P40337) | ternary complex binding, SPR multi-cycle kinetics |  | added: BRD4 bromodomains |  | % Rmax | 48 ± 6% |
| N[C@H]1CC[C@H](Nc2nccc(-c3cccnc3Oc3ccc(NC(=O)NC4CC4)c4ccccc34)n2)CC1 | PXK (Homo sapiens, UniProt Q7Z7A4) | kinobead competition pulldown | HEK293/HCT116 lysate mixture | 10 µM, 1 h, 4 °C | lower = stronger competition | log2 LFQ intensity | 19 and 22.6 and 21.3 and 19.1 |
| O=C1c2sc(-c3ccc(N4CCC(CO)CC4)nc3F)nc2CCN1c1cccnc1 | TAR DNA-binding protein 43, aggregated (TARDBP, Homo sapiens, UniProt Q13148) | binding, surface plasmon resonance | brain-derived TDP-43 aggregates | 1.17 nM |  | SPR response | 1.74 RU |
| CC[C@H](C)[C@H](NC(=O)[C@@H](NC(=O)[C@@H](NC(=O)[C@@H](NC(=O)[C@@H](N)CCCCN)C(C)C)C(C)C)C(C)C)C(=O)N[C@H](C(N)=O)[C@@H](C)O | MAPT | fibril formation, ThT fluorescence |  | 1-fold of tau, at plateau, added: wild-type tau 10 µM, heparin | relative to: untreated | ThT fluorescence | 102 ± 5% |
| Cc1cc(C)cc(COc2cc3c(cc2OCc2cc(C)cc(C)c2)C2CC(O)(Cc4cn(CCOCCOCCNC(=O)CCCCC5SCC6NC(=O)NC65)nn4)CC(C)N2CC3)c1 (stereo not shown) | SLC25A24 (Homo sapiens, UniProt Q6NUK1) | biotinylated probe pull-down |  | 10 µM probe | relative to: heavy over light | SILAC ratio | 1.78 |
| CCCCCC(O)/C=C/C=O (stereo not shown) | Bleomycin hydrolase (Homo sapiens, UniProt Q13867) | competitive isoTOP-ABPP | proteome, soluble, MDA-MB-231 | 100 µM, 60 min, added: iodoacetamide probe | relative to: DMSO over compound-treated, higher = stronger cysteine blockade | isoTOP-ABPP competition ratio | 1.1 |
| CCC[C@H](NC(=O)[C@H](CC(=O)O)NC(C)=O)C(=O)N1[C@H](C(=O)N[C@@H](CC(=O)O)C(=O)COC(=O)c2c(C)cccc2C)C[C@@H]2CCCC[C@@H]21 | CASP10 | enzyme activity, inhibitor |  |  |  | kinact/KI | 165000 M⁻¹ s⁻¹ |
| CC[C@H](C)[C@@H]1NC(=O)[C@H](Cc2ccccc2)NC(=O)[C@H](CCC(=O)O)NC(=O)[C@H](CCCNC(=N)N)NC(=O)CNC(=O)[C@@H](NC(=O)[C@H](CC(C)C)NC(=O)[C@H](CCCNC(=N)N)NC(=O)[C@@H](NC(=O)CNC(=O)[C@H](Cc2ccc(O)cc2)NC(=O)[C@@H]2CCCN2C(=O)[C@H](C)NC(=O)[C@H](C)NC(=O)[C@@H](N)CCCNC(=N)N)C(C)C)CSSC[C@@H]2NC(=O)[C@@H](NC(=O)[C@H](CO)NC(=O)[C@H](CO)NC(=O)[C@H](CO)NC(=O)[C@H](CC(C)C)NC(=O)CNC(=O)[C@H](C)NC(=O)[C@H](CC(C)C)NC(=O)[C@@H](NC(=O)[C@@H](N)CC(=O)O)C(C)C)CSSC[C@H](NC(=O)CNC(=O)[C@H](Cc3c[nH]c4ccccc34)NC(=O)[C@H](CCCCN)NC2=O)C(=O)N[C@@H](CO)C(=O)N[C@@H](CCCCN)C(=O)N[C@@H](CO)C(=O)N[C@@H](CCC(=O)O)C(=O)N[C@@H]([C@@H](C)CC)C(=O)N[C@@H](CO)C(=O)N[C@@H](CO)C(=O)N[C@@H](CC(C)C)C(=O)N[C@H](C(=O)O)CSSC[C@@H](C(=O)NCC(=O)NCC(=O)N[C@@H](CO)C(=O)N[C@@H](CCCNC(=N)N)C(=O)N[C@@H](Cc2c[nH]c3ccccc23)C(=O)O)NC(=O)[C@H]([C@@H](C)O)NC(=O)[C@H](Cc2ccccc2)NC(=O)[C@H]([C@@H](C)CC)NC(=O)[C@H](C(C)C)NC(=O)[C@H](C)NC(=O)[C@H](CCCNC(=N)N)NC1=O | Relaxin-3 receptor 1 (RXFP3, Homo sapiens, UniProt Q9NSD7, M166A) |  | HEK-293T |  | relative to: wild type | Emax | 51.1 ± 3.78% |
| CC(C)Oc1cc(Cl)ccc1CNc1cc(-c2ccccc2)nc2ncnn12 | G-protein coupled receptor 3 (GPR3, Homo sapiens, UniProt P46089) | cAMP reporter | human cells | 3 µM | higher is more cAMP | cAMP luminescence | 4280 a.u. and 2800 a.u. and 3240 a.u. and 2680 a.u. and 12600 a.u. and 12500 a.u. and 5250 a.u. |
| CCCCCCCCCCCCC/C=C/C=O | Trafficking protein particle complex subunit 5 (TRAPPC5, Homo sapiens, UniProt Q8IUR0) | competitive isoTOP-ABPP, measured: TRAPPC5 cysteine peptide | Ramos soluble proteome | 100 µM, added: iodoacetamide probe | relative to: DMSO over compound-treated, higher = stronger cysteine blockade | isoTOP-ABPP competition ratio | 1.1 |
| Cc1ccc(C(=O)Nc2ccc(CN3CCN(C)CC3)c(C(F)(F)F)c2)cc1C#Cc1cnc2cccnn12 | Dual specificity testis-specific protein kinase 1 (TESK1, Homo sapiens, UniProt Q15569) | target engagement, NanoBRET | human cells |  |  | Hill slope | 0.0346 |
| CO[C@@H]1[C@H](O)[C@@H](COP(=O)(O)OP(=O)([O-])C(Cl)(Cl)P(=O)(O)OP(=O)(O)OC[C@H]2O[C@@H](n3cnc4c(=O)[nH]c(N)nc43)[C@H](O)[C@@H]2O)O[C@H]1n1c[n+](C)c2c(O)nc(N)nc21 | DCPS | substrate, HPLC |  | concentration not given, 15 min |  | hydrolysis | 0% |
| O=C(N1CCCC1)n1cc(-c2ccc(-c3ccccc3)cc2)nn1 | Alpha/beta hydrolase domain-containing protein 17B (Abhd17b, Mus musculus, UniProt Q7M759) | probe labelling, inhibitor, competitive ABPP-SILAC, measured: Fam108b1 | mouse T cells | concentration not given, 4 h, protein level | relative to: treated over DMSO cells, lower = stronger inhibition | SILAC activity ratio | 1.18 |
| C[Si](C)(C)C[C@H](CN)CC(=O)O | Adenosine receptor A2b (ADORA2B, Homo sapiens, UniProt P29275) | ligand displacement, radioligand |  | 250 µM |  | inhibition | -24% |
| C#CCOC(=O)[C@@]1(C)C=C(C(=O)OC(C)(C)C)C(=O)CC1 | Mitogen-activated protein kinase 8 (MAPK8, Homo sapiens, UniProt P45983) | enzyme activity, D-SENSOR |  | 0.06097 µM, single replicate |  | normalized kinase activity | 0.932 and 1.14 and 0.874 |
| CC(=O)N[C@@H](CC(C)C)C(=O)N[C@H](C(=O)N[C@@H](C)C(=O)N[C@@H](CC(=O)O)C(=O)COC(=O)c1c(C)cccc1C)C(C)(C)C | CASP8 | enzyme activity, inhibitor |  |  |  | kinact/KI | 2.28e+06 M⁻¹ s⁻¹ |
| Cc1cc(C)c2c(Cn3ccnc3)cc(=O)oc2c1 | Alpha-1A adrenergic receptor (ADRA1A, Homo sapiens, UniProt P35348) | flow cytometry binding | COS-7 | 500 µM, tracer 6.25 nM |  | inhibition of binding | 25.2 ± 1.94% |
| CC(=O)N[C@@H](Cc1ccc(O)cc1)C(=O)N1CSC[C@H]1C(=O)N[C@@H](C)C(=O)N[C@@H](CC(=O)O)C(=O)COC(=O)c1c(C)cccc1C | CASP8 | enzyme activity, inhibitor |  |  |  | kinact/KI | 28000 M⁻¹ s⁻¹ |
| C[n+]1cn([C@@H]2O[C@H](COP(=O)([O-])OP(=O)(O)CP(=O)(O)O)[C@@H](O)[C@H]2O)c2nc(N)nc(O)c21 | DCPS | substrate, HPLC |  | 0.04 mM, 1 h, 37 °C |  | hydrolysis | 0% |
